Measurements of several laboratories.
A part holds a random share of what one study measured.

Sample 1
Target: Interferon regulatory factor 3, full length, phosphomimetic (IRF3, Homo sapiens, UniProt Q14653, residues 1-427, S386D/S396D/S398D/S402D/T404D/S405D)
Technique: protein-binding microarray
Form: double-stranded DNA, one strand shown
Matrix: in vitro
Tested at: 2540 nM top
Notes: 60-bp whole probe
With: salmon DNA 0.4 mg/ml
Reference: random background probes
Reading: higher = stronger binding
Measurement: fitted relative affinity
Target sequence (chain): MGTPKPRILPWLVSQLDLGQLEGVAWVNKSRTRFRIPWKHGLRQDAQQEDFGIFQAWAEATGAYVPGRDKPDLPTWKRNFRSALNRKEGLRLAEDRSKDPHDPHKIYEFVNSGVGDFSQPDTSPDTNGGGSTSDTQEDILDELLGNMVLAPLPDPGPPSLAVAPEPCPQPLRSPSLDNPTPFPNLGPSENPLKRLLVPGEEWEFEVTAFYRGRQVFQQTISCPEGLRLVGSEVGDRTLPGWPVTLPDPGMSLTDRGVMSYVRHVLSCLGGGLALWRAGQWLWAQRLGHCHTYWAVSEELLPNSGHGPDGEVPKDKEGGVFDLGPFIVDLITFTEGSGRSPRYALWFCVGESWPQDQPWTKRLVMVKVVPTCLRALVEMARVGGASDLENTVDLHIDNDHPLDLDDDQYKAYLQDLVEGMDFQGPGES
GCCTAGCACTTAGGTTTCGGGTTTCGCTTAGTGCTAGTCTTGATTCGCTTGACGCTGCTG: 5.3 z-score
GCCTAGCACGACGGTCTCCTACTGCTCACGTGCTAGGTCTTGATTCGCTTGACGCTGCTG: 0.991 z-score
GCCTAGCACTCATTTTTTAATTGAGAACTGTGCTAGGTCTTGATTCGCTTGACGCTGCTG: 1.39 z-score

Sample 2
Target: Prothrombin, mature alpha-thrombin (F2, Homo sapiens, UniProt P00734)
Technique: aptamer microarray, sandwich
Form: DNA with 2'F-ANA
Matrix: in vitro
Tested at: 200 nM
Notes: whole 15-mer aptamer, many near background
With: Cy3 exosite-II aptamer, 400 nM
Reading: higher = stronger binding
Measurement: mean fluorescence intensity
GGTTGGTGTGGTTGG (2'F-ANA at 1 2 3 4 7 9 11 13 14 15): 62.1 a.u.
GGTTGGTGTGGTTGG (2'F-ANA at 1 2 4 5 6 9 10 11 13): 47.8 a.u.
GGTTGGTGTGGTTGG (2'F-ANA at 2 4 6 7 8 9 12 13): 369 a.u.

Sample 3
Target: Histone acetyltransferase KAT6A, winged helix 2, GST fusion (KAT6A, Homo sapiens, UniProt Q92794, residues 85-181)
Technique: protein binding microarray
Form: double-stranded DNA, one strand shown
Matrix: in vitro
Tested at: not given
Notes: 8-mer, flanks averaged, mean of 2 arrays, mostly near background
Reference: not given
Reading: higher = stronger binding
Measurement: E-score
Target sequence (chain): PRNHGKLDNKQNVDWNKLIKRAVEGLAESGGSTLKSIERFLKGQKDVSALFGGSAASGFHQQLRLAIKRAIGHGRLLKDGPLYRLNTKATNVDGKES
GAGCGGAA: 0.0993
ACACCACT: 0.153
CGTGAAAA: -0.0728
ACTCTCCG: 0.159
AAGCAGCT: -0.0812

Single results of other studies
PhoQ, residues 284 288 289 292 302 303 SSTLLI
fold induction (PhoP, residues 12 14 15 18 19 SPWRL (Escherichia coli, UniProt P23836); Sort-seq, measured: YFP reporter; E. coli; PhoQ-PhoP variant library, with: 10 µM Mg2+; reference: high Mg2+ state, higher = stronger signaling): 3.29

For quick reference, copied from above (sample 2):
GGTTGGTGTGGTTGG (2'F-ANA at 2 4 6 7 8 9 12 13): 369 a.u.
GGTTGGTGTGGTTGG (2'F-ANA at 1 2 3 4 7 9 11 13 14 15): 62.1 a.u.
